Published values collected from several papers.
Every numbered part comes from another study and shows a few of its results, in no order.

Series 1
Target: PABPC1L2, full length, GST fusion (mouse, UniProt A0ABA7IW68)
Technique: RNAcompete
Form: RNA
Medium: in vitro
Concentration: 20 nM
Setting: 7-mer, probes averaged, single round
Baseline: mean of 7-mers
Reading: higher = stronger binding
Quantity: 7-mer Z-score
Construct (chain): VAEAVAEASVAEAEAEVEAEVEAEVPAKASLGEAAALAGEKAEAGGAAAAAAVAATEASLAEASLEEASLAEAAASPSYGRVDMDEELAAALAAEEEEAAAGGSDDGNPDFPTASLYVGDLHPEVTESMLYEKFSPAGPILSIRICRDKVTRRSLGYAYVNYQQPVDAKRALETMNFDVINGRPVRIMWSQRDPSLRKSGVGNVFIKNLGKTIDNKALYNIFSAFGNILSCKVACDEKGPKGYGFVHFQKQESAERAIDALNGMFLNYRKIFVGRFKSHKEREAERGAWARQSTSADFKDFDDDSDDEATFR
UGGCUUA: 0.0406
CACCUAG: -0.233
CUUCCGG: -0.349
UUCGAUA: -0.179
CUUGUCA: -0.393
UUAGGUU: -0.179
CGUCCGU: -0.267
GAUCAUA: -0.0156
UUGCUAU: -0.24
UCUAACU: -0.425
GUACAUA: 0.0587
UGACCAC: 0.0678
CCAGUUA: -0.188
AGGUAUC: -0.177
AAUGCGC: 0.0714
UUCUUUC: -0.351
CGCACUA: -0.157
CCACGUC: -0.369
UCCAGGA: -0.117
CCUGUGU: -0.345
UGCCUCC: -0.38
ACAGAUG: 0.0768
CGCCAAG: -0.38
CGGUACA: -0.0246

Series 2
Target: RING finger protein unkempt homolog, zinc fingers 1-6, GST-SBP tag (UNK, Homo sapiens, UniProt Q9C0B0, residues 30-357)
Sequence of UniProt Q9C0B0 (30-357, looked up): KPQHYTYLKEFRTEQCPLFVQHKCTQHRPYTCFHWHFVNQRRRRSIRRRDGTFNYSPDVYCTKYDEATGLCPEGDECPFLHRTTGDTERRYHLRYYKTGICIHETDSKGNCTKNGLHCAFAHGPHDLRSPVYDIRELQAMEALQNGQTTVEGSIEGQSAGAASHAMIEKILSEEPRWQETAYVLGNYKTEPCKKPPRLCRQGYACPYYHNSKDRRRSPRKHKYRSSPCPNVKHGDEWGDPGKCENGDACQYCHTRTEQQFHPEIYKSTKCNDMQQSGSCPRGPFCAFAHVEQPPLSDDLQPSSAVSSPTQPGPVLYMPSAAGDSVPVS
Technique: RNA Bind-n-Seq
Form: RNA
Medium: in vitro
Concentration: not given
Setting: RNA with constant flanks, human-mouse chimeric sites, ends assumed
Baseline: input RNA pool
Reading: higher = stronger binding
Quantity: bound/input enrichment
Shared flanks, not repeated: GGGAGUUCUACAGUCCGACGAUC … CAACAGAGGAUUGAGCAUCA
AACUUCGUACAUAGAUUUCCCUUUGUAGCUGUUUCAAUUGGCUUCCUUGUGAAUAAAGAGAUGGAGUUUGGAAUUGUGUACAGCUGUGUGGAAGGCAAGAUGUACACCGGCAGGAAAGGG: 0.662 ratio
UUACCCGAGAACGAGGAUGAAUUGGAGAGCACCAACAGGCGCUACACCAAGAGGGACUGCAGCACUUUCCUCAGAACUAGUGAGACGGGCAUCGUGGAUCAGGUUAUGGUCACUCUCAAC: 0.2 ratio
ACCUCCCCCUCCCGCCUCACCCCACCCAAGAAAGAAAGAAAGUUUUUGGCGUUUCUUUUUUUUAGAAAUACAAAGUGAUUACAGUUUCCCCCGCAAGGGUCUAUCGAAGGGCUUGACGGA: 0.881 ratio
AAAGAGAAACUAAAGCAACUAAUAGAGGAAGAGGAUUGCAAAGAGAAUUUCAUAGAGGAAACUAGGAUUAUUAGCAAACAUGAGUUAUAUUCCAGAGCGUCUCAGAAACCCCAGCCAAAC: 5.22 ratio
UUCAAAGAAAAGGGCAGUUCAUAAAUAUCAUAAGUAACUCUGGGGGAGGGAAAUUCUAACUAGUUUGUUAAUUUUCCCCCAAAUGAAGCCAAAGUGUGUGUUGAAGAACUGAGAAAAAAU: 1.53 ratio
AGAAAGCAAAACUUGGAAAGAUUUAAGAAAGGAGAUGUAAGAUUCUUGAUUUGCACAGAUGUAGCUGCUAGAGGGAUUGAUAUCCAUGGCGUUCCUUAUGUGAUCAACGUCACCCUGCCU: 0.3 ratio
GACCCACAGUGGUCUGAGGAGCAACUCAUUGCUGCAAAAUUCUGUUUUGCUGGCCUUGUUAUAGGGCAGACUGAAGUGGACAUCAUGAGUCAUGCCACACAAGCUAUAUUUGAAAUACUG: 0.2 ratio
GCAGGAUCUUCUAAGUACCAGUGGGACAUUAUGAAAUCCCUUGGGCUCUCUGAUGACGACAUAGUGAAGUUUUCUGAAGCAGAACAUUGGCUUGAUUAUUUCCCACCACUGGCCGUUCAG: 0.283 ratio
ACCUCCCCCUCCCGCCUCACCCCACCCAAGAAAGAAAGAAAGUUUUUGGCGUUUCUUUUCCUUCCCCAUACAAAGUGAUUACAGUUUAGAGUCUAUGGGUCUAUCGAAGGGCUUGACGGA: 0.558 ratio
GAUCAUGAACCACCAUCAGAAAUGAAGGAUGAGACUACCAGACGAGCCAAAACAGCUGCGCUACAGAAAAGUAAACUUAACCUUGCAGAGUUCCUUAAAUGAAGAUCAAGUUAAGAGAGC: 0.277 ratio
AACAUUUUUGUCAGGAUUUAUGUUCCUGUGAAACAAGUGAACACUCUGAUACACUUCAUCUGCUUGUACAUCUGUAUGAUAGAGAAAUGUAAAUAUGUUAAUCCAAGCAAUGUGUCACUU: 0.212 ratio

Series 3
Target: Sal-like protein 4, full length isoform A (SALL4, Homo sapiens, UniProt Q9UJQ4, residues 1-1053)
Sequence of UniProt Q9UJQ4 (whole entry, looked up): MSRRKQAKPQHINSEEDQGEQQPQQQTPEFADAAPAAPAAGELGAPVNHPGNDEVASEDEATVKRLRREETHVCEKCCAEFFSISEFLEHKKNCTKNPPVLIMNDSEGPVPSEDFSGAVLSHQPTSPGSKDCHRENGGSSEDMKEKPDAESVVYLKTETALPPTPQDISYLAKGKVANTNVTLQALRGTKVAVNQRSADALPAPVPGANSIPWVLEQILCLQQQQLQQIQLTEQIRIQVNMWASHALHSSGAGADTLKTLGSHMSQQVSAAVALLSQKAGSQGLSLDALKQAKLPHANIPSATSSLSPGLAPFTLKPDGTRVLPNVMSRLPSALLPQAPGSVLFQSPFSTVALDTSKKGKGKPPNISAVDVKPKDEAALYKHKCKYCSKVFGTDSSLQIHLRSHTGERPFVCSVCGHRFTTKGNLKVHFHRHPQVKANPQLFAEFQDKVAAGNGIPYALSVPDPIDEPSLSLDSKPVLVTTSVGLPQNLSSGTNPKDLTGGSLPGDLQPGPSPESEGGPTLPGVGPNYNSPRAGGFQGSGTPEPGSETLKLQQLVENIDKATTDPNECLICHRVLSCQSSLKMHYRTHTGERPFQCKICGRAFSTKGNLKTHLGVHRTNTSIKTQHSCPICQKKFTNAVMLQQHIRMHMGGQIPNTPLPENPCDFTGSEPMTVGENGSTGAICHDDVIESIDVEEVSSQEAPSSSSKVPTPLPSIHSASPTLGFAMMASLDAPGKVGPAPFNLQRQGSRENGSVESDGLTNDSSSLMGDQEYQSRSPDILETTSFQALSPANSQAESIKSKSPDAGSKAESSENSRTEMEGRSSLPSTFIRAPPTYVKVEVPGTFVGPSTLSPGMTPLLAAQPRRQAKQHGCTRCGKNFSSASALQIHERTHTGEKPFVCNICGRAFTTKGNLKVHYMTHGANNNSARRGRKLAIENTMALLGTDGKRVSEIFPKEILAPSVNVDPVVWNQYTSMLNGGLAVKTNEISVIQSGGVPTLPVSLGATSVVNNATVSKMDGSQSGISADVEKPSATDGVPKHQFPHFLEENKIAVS
Technique: universal PBM
Form: double-stranded DNA, one strand shown
Medium: in vitro
Concentration: 600 nM
Setting: 8-mer, flanks averaged, mean of replicates
Reading: higher = stronger binding
Quantity: E-score
AATGCCAG: -0.02
AGGTATAC: 0.105
CCGACTTC: -0.396
ACCATCAG: -0.113
ATCCCTAG: -0.0426
TAATAGCA: 0.208
ATGTAGCA: 0.119
GTGTAACA: 0.115
AATGCAGT: 0.0839
ATGGGGCC: -0.415
TAAATCAA: 0.343
CAGACCCC: -0.358
CAGTAATG: 0.165
CGATCCTC: -0.192
AAGTTTCA: 0.183
CGTGAGAA: -0.0712
CACAAATG: 0.139

Series 4
Target: RNA binding protein fox-1 homolog 2, RRM domain, GST-SBP tag (RBFOX2, Homo sapiens, UniProt O43251-10, residues 100-194)
Technique: RNA Bind-n-Seq
Form: RNA
Medium: in vitro
Concentration: 365 nM
Setting: natural RNA segment, single round, ends assumed
Baseline: no-protein control
Reading: higher = stronger binding
Quantity: RBNS enrichment (R)
Shared flanks, not repeated: GGGAGUUCUACAGUCCGACGAUC … UGGAAUUCUCGGGUGCCAA
Construct (chain): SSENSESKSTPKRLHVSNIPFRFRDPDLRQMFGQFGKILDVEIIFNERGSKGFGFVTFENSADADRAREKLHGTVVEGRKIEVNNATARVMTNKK
AAAACGUCAGCCUCUGCCCCACCCUCCCUCCUGCCCAAAGUGAAUUUGGUACUCAGAAAAGAACUGUUUAUACCACUCACCUUUCUCCCAGCAUGUACUCACUGUGGGCA: 5.39
UGUGUGAGCACUGGAGUGUCCAGAGCCCUGCACACUCGGGGUGGGGGGCGGGGUACUCUCCCUGUCGCUAGGUGAGCACUGGCUUUGUCCAACAUCAGGGAACACAAGGC: 0.195
GAGGAAAGACACCACAACCAACACGAAAGCAAUUCCUCAUCCUCAGAUGCUCAAAGUCCCUUUUCUGUUUGUUUGUUUAUAGAUGAACUAUCUAUCUUAUUUCAGUACUU: 0.405
AUAUUUAUUUGAUAGCGAUAAGUCUCCGAAGGGAGUGGAAAUGCAGUCAGCCUGGGCCCUUAGCCCAUGACUACCCUCCAGUGAGGCUCUGAGGCCUGGCUAGGGCCCUC: 0.364
UGAGAUGGGAGAGAUUUGAAUAUAGAAUUUUUAUUCUCAAACUGUUUAGUCAUCUAAGGCUUCAUUGUACUUCGGGGAGAGCUAUAAGUAACUCACCUUUAAAACAACAG: 0.297
GCUCCUCUAGUUCCAGCUCGUCAGACUCGGACUCAGAGUGUGAAUCUGGGUCAGAAGGUGAUGGGACGACACACCGCAGGAAGAAGAGGAGAACCUGCAGCAUGGUGGGA: 7.07
AUCCAGGUUCCAGAGAGAACAUUAGAUCUUAGCUCUUGACAAAACGGAUGGCAGAUACUGGCCUUUGAAACUCUGUUGAUUCAUCUCUUCUAAUCGGUCCCCAAGGAGAA: 0.365
AAUUUCUGAAGCUUAGUGUAAUUGAGUGGUGGUUGUUAUUCAAUAAAAUUAUUCCCAAAAGUGUUUCUCCUAAGAGUGCAGUUCCCAUGAGUCACUUCCUGAACCCAUUG: 0.332
GCGGCGCUCUAGUUGUAUGUAAGAUGGGCAUUCCUCUGCUCUCCUCUAUUCUCCAUGUCGACUGAGAAGAGUAUAAUAAGAACAUUGUACCCUCUCCACACUUAACCCUC: 0.489
UGUUCCAGGGUCGGGAGUCUAGGGUUGAGCACAACAUGACGUUUAAUUUCCUUUGACUUUUGUGGCGCAUAGGAGUCCGUGUUUAUCUUCUCGAUUUUGUUCUGAGGGUU: 0.432
UGUCACGUUGCAUUCAUGUUCACCUCCUGAUUUAAGUAUCUCGGGUGUGCCCAGCCACUAAAGCACUCUGGACUAAUCGCUAAAGAGAAGCAACGUGGGGGGUGGGGUUG: 0.322
AUAAAGAAAAUAAAAUCCUUCUGUAAUAAUCAAAUAAAGUACUUCCCAUAAUCAAAACCAAAUUGGUAUCUUCAGAGCCUAUUAAGUCUCAUCUUUUAUAAAGUUCGGCU: 0.505

Series 5
Target: Histone acetyltransferase KAT6A, both winged helices, GST fusion (KAT6A, Homo sapiens, UniProt Q92794, residues 1-181)
Technique: protein binding microarray
Form: double-stranded DNA, one strand shown
Medium: in vitro
Concentration: not given
Setting: 8-mer, flanks averaged, mean of 2 arrays, mostly near background
Baseline: not given
Reading: higher = stronger binding
Quantity: E-score
Construct (chain): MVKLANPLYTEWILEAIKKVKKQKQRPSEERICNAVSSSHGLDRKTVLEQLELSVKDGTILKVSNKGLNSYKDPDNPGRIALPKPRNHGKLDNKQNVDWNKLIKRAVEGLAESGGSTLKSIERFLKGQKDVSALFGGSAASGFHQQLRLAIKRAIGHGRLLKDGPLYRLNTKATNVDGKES
CCATACAG: -0.183
TAAAAGTA: -0.0479
AGTACAAG: -0.181
TGCCCACA: -0.167
AAGGTAAT: -0.111
ACGACATA: -0.167
CGTATCTC: 0.118
ATAGCGCA: 0.165
ACGTAACC: 0.0932
AAATTTAA: -0.0764
AGTGCCAC: -0.277
GGTGCCTA: -0.0903
GAAGATTA: 0.0161
CCGAACGA: 0.0508
GGCCCTAA: -0.131
GGAACGAA: 0.0653
CCTAGAAG: -0.023
AGTGGCCC: -0.0396
AATGCTGC: -0.0828
ACCCCATA: -0.127
AACTGATC: -0.0706
CTATCCAC: -0.0633
ATCGCTAG: 0.00835
AGTTTTCC: 0.121
GCTTGATA: -0.0365

A few entries again (series 2):
AAAGAGAAACUAAAGCAACUAAUAGAGGAAGAGGAUUGCAAAGAGAAUUUCAUAGAGGAAACUAGGAUUAUUAGCAAACAUGAGUUAUAUUCCAGAGCGUCUCAGAAACCCCAGCCAAAC: 5.22 ratio
AGAAAGCAAAACUUGGAAAGAUUUAAGAAAGGAGAUGUAAGAUUCUUGAUUUGCACAGAUGUAGCUGCUAGAGGGAUUGAUAUCCAUGGCGUUCCUUAUGUGAUCAACGUCACCCUGCCU: 0.3 ratio
GCAGGAUCUUCUAAGUACCAGUGGGACAUUAUGAAAUCCCUUGGGCUCUCUGAUGACGACAUAGUGAAGUUUUCUGAAGCAGAACAUUGGCUUGAUUAUUUCCCACCACUGGCCGUUCAG: 0.283 ratio
UUACCCGAGAACGAGGAUGAAUUGGAGAGCACCAACAGGCGCUACACCAAGAGGGACUGCAGCACUUUCCUCAGAACUAGUGAGACGGGCAUCGUGGAUCAGGUUAUGGUCACUCUCAAC: 0.2 ratio
GAUCAUGAACCACCAUCAGAAAUGAAGGAUGAGACUACCAGACGAGCCAAAACAGCUGCGCUACAGAAAAGUAAACUUAACCUUGCAGAGUUCCUUAAAUGAAGAUCAAGUUAAGAGAGC: 0.277 ratio
AACAUUUUUGUCAGGAUUUAUGUUCCUGUGAAACAAGUGAACACUCUGAUACACUUCAUCUGCUUGUACAUCUGUAUGAUAGAGAAAUGUAAAUAUGUUAAUCCAAGCAAUGUGUCACUU: 0.212 ratio
ACCUCCCCCUCCCGCCUCACCCCACCCAAGAAAGAAAGAAAGUUUUUGGCGUUUCUUUUCCUUCCCCAUACAAAGUGAUUACAGUUUAGAGUCUAUGGGUCUAUCGAAGGGCUUGACGGA: 0.558 ratio
GACCCACAGUGGUCUGAGGAGCAACUCAUUGCUGCAAAAUUCUGUUUUGCUGGCCUUGUUAUAGGGCAGACUGAAGUGGACAUCAUGAGUCAUGCCACACAAGCUAUAUUUGAAAUACUG: 0.2 ratio
UUCAAAGAAAAGGGCAGUUCAUAAAUAUCAUAAGUAACUCUGGGGGAGGGAAAUUCUAACUAGUUUGUUAAUUUUCCCCCAAAUGAAGCCAAAGUGUGUGUUGAAGAACUGAGAAAAAAU: 1.53 ratio
AACUUCGUACAUAGAUUUCCCUUUGUAGCUGUUUCAAUUGGCUUCCUUGUGAAUAAAGAGAUGGAGUUUGGAAUUGUGUACAGCUGUGUGGAAGGCAAGAUGUACACCGGCAGGAAAGGG: 0.662 ratio
ACCUCCCCCUCCCGCCUCACCCCACCCAAGAAAGAAAGAAAGUUUUUGGCGUUUCUUUUUUUUAGAAAUACAAAGUGAUUACAGUUUCCCCCGCAAGGGUCUAUCGAAGGGCUUGACGGA: 0.881 ratio
